Experimental data gathered from unrelated publications.
Numbers after ± are the reported error.

SMILES	test	test system	conditions	measurement	value
CCCC[C@H](NC(=O)CNC(=O)CNC(=O)CN1CCN(CC(=O)O)CCN(CC(=O)O)CCN(CC(=O)O)CC1)C(=O)N[C@H]1CC(=O)NCCCC[C@@H](C(N)=O)NC(=O)[C@H](Cc2c[nH]c3ccccc23)NC(=O)[C@H](CCCNC(=N)N)NC(=O)[C@@H](Cc2ccccc2)NC(=O)[C@H](Cc2c[nH]cn2)NC1=O [lutetium-177 labelled]	–	C57 mouse, female, kidneys	intravenous, 0.037 MBq, 0.5 h	tissue uptake	13.8 ± 2.51 %ID/g
C/C=C(/C)C(=O)O[C@H]1C(C)=C2[C@H]([C@@H]1OC(=O)CCCCCCC)[C@@](C)(OC(C)=O)C[C@H](OC(=O)CCCCCCCCCCCNC(=O)C[C@H](N)C(=O)N[C@@H](CCC(=O)N[C@@H](CCC(=O)N[C@@H](CCC(=O)N[C@@H](CCC(=O)O)C(=O)O)C(=O)O)C(=O)O)C(=O)O)[C@@]1(O)[C@H]2OC(=O)[C@@]1(C)O	–	human patients	intravenous infusion	fraction eliminated in beta phase	> 90%
N=C(N)NCCC[C@@H]1NC(=O)[C@H](CCCCNC(=O)CCC(C(=O)O)N2CCCN3CCN(CCCN(C(CCC(=O)NCCCC[C@@H]4NC(=O)[C@@H](Cc5ccc(O)cc5)NC(=O)[C@H](CC(=O)O)NC(=O)CNC(=O)[C@H](CCCNC(=N)N)NC4=O)C(=O)O)CC3)CC2)NC(=O)[C@@H](Cc2ccc(O)cc2)NC(=O)[C@H](CC(=O)O)NC(=O)CNC1=O (stereo partly shown) [copper-64 labelled]	–	SCID mouse	intravenous, dose not given, 24 h	dose excreted	88.2 ± 4.9%
CC(C)[C@H](NC(=O)[C@H](CCC(=O)O)NC(=O)[C@@H](NC(=O)[C@@H](C)c1cccc(C(=O)c2ccccc2)c1)C(C)C)C(=O)N[C@@H](CCC(=O)O)C(=O)O	–	water	–	minimum gelation concentration	≥ 5 mM
N=C(N)NCCC[C@@H]1NC(=O)[C@H](CCCCNC(=O)CNC(=O)CNC(=O)CNC(=O)CC[C@H](NC(=O)CNC(=O)CNC(=O)CNC(=O)CC[C@H](NC(=O)CN2CCN(CC(=O)O)CCN(CC(=O)O)CCN(CC(=O)O)CC2)C(=O)NCC(=O)NCC(=O)NCC(=O)N[C@@H](CCC(=O)NCC(=O)NCC(=O)NCC(=O)NCCCC[C@@H]2NC(=O)[C@@H](Cc3ccccc3)NC(=O)[C@H](CC(=O)O)NC(=O)CNC(=O)[C@H](CCCNC(=N)N)NC2=O)C(=O)NCC(=O)NCC(=O)NCC(=O)NCCCC[C@@H]2NC(=O)[C@@H](Cc3ccccc3)NC(=O)[C@H](CC(=O)O)NC(=O)CNC(=O)[C@H](CCCNC(=N)N)NC2=O)C(=O)NCC(=O)NCC(=O)NCC(=O)NCCCC[C@@H]2NC(=O)[C@@H](Cc3ccccc3)NC(=O)[C@H](CC(=O)O)NC(=O)CNC(=O)[C@H](CCCNC(=N)N)NC2=O)NC(=O)[C@@H](Cc2ccccc2)NC(=O)[C@H](CC(=O)O)NC(=O)CNC1=O [indium-111 labelled]	–	female athymic nu/nu mice, heart	intravenous, 0.5 h	tissue uptake	1.5 ± 0.76 %ID/g
CCCC[C@H](NC(=O)CNC(=O)CNC(=O)CN1CCN(CC(=O)O)CCN(CC(=O)O)CC1)C(=O)N[C@H]1CC(=O)NCCCC[C@@H](C(N)=O)NC(=O)[C@H](Cc2c[nH]c3ccccc23)NC(=O)[C@H](CCCNC(=N)N)NC(=O)[C@@H](Cc2ccccc2)NC(=O)[C@H](Cc2c[nH]cn2)NC1=O [technetium-99m labelled]	–	C57 mouse, bone	iv, 0.037 MBq, 24 h	tissue uptake	0.01 %ID/g
N=C(N)NCCC[C@@H]1NC(=O)[C@H](CCCCNC(=O)CNC(=O)CNC(=O)CNC(=O)CC[C@H](NC(=O)CNC(=O)CNC(=O)CNC(=O)CN2CCN(CC(=O)O)CCN(CC(=O)O)CCN(CC(=O)O)CC2)C(=O)NCC(=O)NCC(=O)NCC(=O)NCCCC[C@@H]2NC(=O)[C@@H](Cc3ccccc3)NC(=O)[C@H](CC(=O)O)NC(=O)CNC(=O)[C@H](CCCNC(=N)N)NC2=O)NC(=O)[C@@H](Cc2ccccc2)NC(=O)[C@H](CC(=O)O)NC(=O)CNC1=O [copper-64 labelled]	–	athymic nu/nu mouse, female, kidney	intravenous, 4 h	tissue uptake	3.23 ± 0.4 %ID/g
CC(C)C[C@H](NC(=O)C[C@H](O)[C@H](CC(C)C)NC(=O)[C@H](Cc1c[nH]cn1)NC(=O)CNC(=O)[C@@H](NC(=O)[C@H](C)NC(=O)[C@H](Cc1c[nH]c2ccccc12)NC(=O)[C@H](CCC(N)=O)NC(=O)[C@@H](Cc1ccccc1)NC(=O)CCOCCOCCOCCNC(=O)CN1CCN(CC(=O)O)CCN(CC(=O)O)CC1)C(C)C)C(N)=O [gallium-68 labelled]	radio-HPLC	fetal bovine serum	1.9 nM, 2 h, 37 °C	remaining parent	80.6%
CCCC[C@H](NC(=O)COCCOCCNC(=O)CN1CCN(CC(=O)O)CCN(CC(=O)O)CC1)C(=O)N[C@H]1CC(=O)NCCCC[C@@H](C(N)=O)NC(=O)[C@H](Cc2c[nH]c3ccccc23)NC(=O)[C@H](CCCNC(=N)N)NC(=O)[C@@H](Cc2ccccc2)NC(=O)[C@H](Cc2c[nH]cn2)NC1=O [copper-64 labelled]	–	C57 mice, intestine	intravenous, 0.37 MBq, 2 h	tissue uptake	1.51 ± 0.23 %ID
CC(C)C[C@H](NC(=O)[C@@H](CCCCNC(=O)CCCCCNC(=O)CN1CCN(CC(=O)O)CCN(CC(=O)O)CCN(CC(=O)O)CC1)NC(=O)[C@H](Cc1ccc(O)cc1)NC(=O)[C@H](CO)NC(=O)[C@H](Cc1c[nH]c2ccccc12)NC(=O)[C@H](Cc1cnc[nH]1)NC(=O)[C@@H]1CCC(=O)N1)C(=O)N[C@@H](CCCNC(=N)N)C(=O)N1CCC[C@H]1C(=O)NCC(N)=O [indium-111 labelled]	–	female athymic nude mouse, tumor	intravenous, 0.037 MBq, 0.5 h	tissue uptake	1.76 ± 0.58 %ID/g
N=C(N)NCCC[C@H](NC(=O)[C@@H]1CSSC[C@H](NC(=O)[C@H](Cc2ccc3ccccc3c2)NC(=O)[C@H](CCCNC(=N)N)NC(=O)[C@H](CCCNC(=N)N)NC(=O)CN2CCN(CC(=O)O)CCN(CC(=O)O)CC2)C(=O)N[C@@H](Cc2ccc(O)cc2)C(=O)N[C@@H](CCCNC(N)=O)C(=O)N[C@@H](CCCCN)C(=O)N[C@H](CCCCN)C(=O)N2CCC[C@H]2C(=O)N[C@@H](Cc2ccc(O)cc2)C(=O)N[C@@H](CCCNC(=N)N)C(=O)N[C@@H](CCCNC(N)=O)C(=O)N1)C(N)=O [gallium-68 labelled]	–	healthy human volunteers	dose not given, during imaging	vital signs, ECG, blood tests	no effect
CN1C(=O)[C@@H](Cc2ccc(O)cc2)NC(=O)CNC(=O)[C@H](Cc2ccc3ccccc3c2)NC(=O)[C@H](CCCNC(=N)N)NC(=O)[C@H]1CCCNC(=O)c1ccc(CNC(=O)CN2CCN(CC(=O)O)CCN(CC(=O)O)CCN(CC(=O)O)CC2)cc1 [gallium-68 labelled]	extrapolated to adult male	C57BL/6 mice, kidneys	–	absorbed dose coefficient	0.0385 ± 0.0256 mGy/MBq
CC(C)C[C@H](NC(=O)[C@H](Cc1ccc(O)cc1)NC(=O)[C@H](CO)NC(=O)[C@H](Cc1c[nH]c2ccccc12)NC(=O)CNC(=O)[C@H](CCCCN)NC(=O)[C@@H](N)Cc1c[nH]c2ccccc12)C(=O)N[C@@H](Cc1c[nH]c2ccccc12)C(=O)N[C@H](C(=O)N[C@@H](CCC(N)=O)C(=O)N[C@@H](CCC(N)=O)C(=O)N[C@@H](C)C(=O)NCC(=O)NCC(=O)NCC(=O)N[C@@H](CO)C(=O)N[C@@H](CSC1CC(=O)N(CCNC(=O)CCCCCN2C(=CC=C3CCCC(C=CC4=[N+](CCCCS(=O)(=O)O)c5ccc(S(=O)(=O)[O-])cc5C4(C)C)=C3Oc3ccc(S(=O)(=O)O)cc3)C(C)(C)c3cc(S(=O)(=O)O)ccc32)C1=O)C(N)=O)[C@@H](C)O (stereo partly shown)	RP-HPLC	mouse serum	30 µM, 37 °C	half-life	5.1 h

For quick reference, copied from above:
SMILES	test	test system	conditions	measurement	value
CC(C)C[C@H](NC(=O)C[C@H](O)[C@H](CC(C)C)NC(=O)[C@H](Cc1c[nH]cn1)NC(=O)CNC(=O)[C@@H](NC(=O)[C@H](C)NC(=O)[C@H](Cc1c[nH]c2ccccc12)NC(=O)[C@H](CCC(N)=O)NC(=O)[C@@H](Cc1ccccc1)NC(=O)CCOCCOCCOCCNC(=O)CN1CCN(CC(=O)O)CCN(CC(=O)O)CC1)C(C)C)C(N)=O [gallium-68 labelled]	radio-HPLC	fetal bovine serum	1.9 nM, 2 h, 37 °C	remaining parent	80.6%
N=C(N)NCCC[C@@H]1NC(=O)[C@H](CCCCNC(=O)CNC(=O)CNC(=O)CNC(=O)CC[C@H](NC(=O)CNC(=O)CNC(=O)CNC(=O)CC[C@H](NC(=O)CN2CCN(CC(=O)O)CCN(CC(=O)O)CCN(CC(=O)O)CC2)C(=O)NCC(=O)NCC(=O)NCC(=O)N[C@@H](CCC(=O)NCC(=O)NCC(=O)NCC(=O)NCCCC[C@@H]2NC(=O)[C@@H](Cc3ccccc3)NC(=O)[C@H](CC(=O)O)NC(=O)CNC(=O)[C@H](CCCNC(=N)N)NC2=O)C(=O)NCC(=O)NCC(=O)NCC(=O)NCCCC[C@@H]2NC(=O)[C@@H](Cc3ccccc3)NC(=O)[C@H](CC(=O)O)NC(=O)CNC(=O)[C@H](CCCNC(=N)N)NC2=O)C(=O)NCC(=O)NCC(=O)NCC(=O)NCCCC[C@@H]2NC(=O)[C@@H](Cc3ccccc3)NC(=O)[C@H](CC(=O)O)NC(=O)CNC(=O)[C@H](CCCNC(=N)N)NC2=O)NC(=O)[C@@H](Cc2ccccc2)NC(=O)[C@H](CC(=O)O)NC(=O)CNC1=O [indium-111 labelled]	–	female athymic nu/nu mice, heart	intravenous, 0.5 h	tissue uptake	1.5 ± 0.76 %ID/g
